Measured values of several laboratories.
Compare with care: the assays were run in different laboratories. ± marks the error that the study gave.
ABCG2: Broad substrate specificity ATP-binding cassette transporter ABCG2 (ABCG2, Homo sapiens, UniProt Q9UNQ0)
Sequence of UniProt Q9UNQ0 (whole entry, looked up): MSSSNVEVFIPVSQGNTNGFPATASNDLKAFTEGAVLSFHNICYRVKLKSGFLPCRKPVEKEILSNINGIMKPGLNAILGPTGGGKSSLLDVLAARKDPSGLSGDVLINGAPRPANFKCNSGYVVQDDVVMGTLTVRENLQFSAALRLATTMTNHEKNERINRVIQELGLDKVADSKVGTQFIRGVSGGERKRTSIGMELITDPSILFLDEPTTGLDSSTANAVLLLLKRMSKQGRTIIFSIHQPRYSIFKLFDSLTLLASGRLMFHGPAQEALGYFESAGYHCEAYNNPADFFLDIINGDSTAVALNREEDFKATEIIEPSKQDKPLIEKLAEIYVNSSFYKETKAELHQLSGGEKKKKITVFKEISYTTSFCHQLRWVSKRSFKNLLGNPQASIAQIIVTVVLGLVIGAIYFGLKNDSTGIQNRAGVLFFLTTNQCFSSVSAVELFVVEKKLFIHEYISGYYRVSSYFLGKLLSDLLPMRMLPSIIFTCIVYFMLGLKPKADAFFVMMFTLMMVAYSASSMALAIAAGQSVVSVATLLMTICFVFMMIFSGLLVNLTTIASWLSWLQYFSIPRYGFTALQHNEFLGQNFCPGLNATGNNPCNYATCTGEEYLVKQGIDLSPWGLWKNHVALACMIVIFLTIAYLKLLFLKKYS
CYP2C8: Cytochrome P450 2C8 (CYP2C8, Homo sapiens, UniProt P10632)
Sequence of UniProt P10632 (whole entry, looked up): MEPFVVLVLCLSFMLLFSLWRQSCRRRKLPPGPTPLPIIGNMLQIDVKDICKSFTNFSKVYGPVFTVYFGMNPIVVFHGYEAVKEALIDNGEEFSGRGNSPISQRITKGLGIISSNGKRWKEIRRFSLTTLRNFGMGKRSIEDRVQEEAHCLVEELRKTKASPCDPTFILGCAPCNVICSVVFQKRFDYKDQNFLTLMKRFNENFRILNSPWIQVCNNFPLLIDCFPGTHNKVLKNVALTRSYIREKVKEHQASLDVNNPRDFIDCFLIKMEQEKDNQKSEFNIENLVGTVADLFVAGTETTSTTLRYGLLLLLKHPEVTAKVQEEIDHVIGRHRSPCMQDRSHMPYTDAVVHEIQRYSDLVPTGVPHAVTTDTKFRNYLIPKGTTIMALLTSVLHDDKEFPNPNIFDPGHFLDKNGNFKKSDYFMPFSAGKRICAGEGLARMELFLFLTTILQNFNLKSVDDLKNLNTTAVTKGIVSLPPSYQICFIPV
CYP3A4: Cytochrome P450 3A4 (CYP3A4, Homo sapiens, UniProt P08684)
Sequence of UniProt P08684 (whole entry, unmodified, looked up): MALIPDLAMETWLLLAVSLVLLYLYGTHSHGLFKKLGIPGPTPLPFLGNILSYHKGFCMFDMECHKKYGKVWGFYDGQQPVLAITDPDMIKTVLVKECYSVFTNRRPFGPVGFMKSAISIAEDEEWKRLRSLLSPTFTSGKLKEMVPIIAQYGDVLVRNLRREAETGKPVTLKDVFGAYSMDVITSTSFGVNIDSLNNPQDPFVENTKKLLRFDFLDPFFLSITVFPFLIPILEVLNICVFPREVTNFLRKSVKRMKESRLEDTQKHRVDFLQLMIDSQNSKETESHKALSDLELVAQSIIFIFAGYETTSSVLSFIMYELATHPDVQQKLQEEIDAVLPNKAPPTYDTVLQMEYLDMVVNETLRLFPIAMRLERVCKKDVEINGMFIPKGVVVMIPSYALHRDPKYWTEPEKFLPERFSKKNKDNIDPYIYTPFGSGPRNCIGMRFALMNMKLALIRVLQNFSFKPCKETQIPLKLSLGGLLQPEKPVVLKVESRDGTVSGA
CYP2C9: Cytochrome P450 2C9 (CYP2C9, Homo sapiens, UniProt P11712)
Sequence of UniProt P11712 (whole entry, looked up): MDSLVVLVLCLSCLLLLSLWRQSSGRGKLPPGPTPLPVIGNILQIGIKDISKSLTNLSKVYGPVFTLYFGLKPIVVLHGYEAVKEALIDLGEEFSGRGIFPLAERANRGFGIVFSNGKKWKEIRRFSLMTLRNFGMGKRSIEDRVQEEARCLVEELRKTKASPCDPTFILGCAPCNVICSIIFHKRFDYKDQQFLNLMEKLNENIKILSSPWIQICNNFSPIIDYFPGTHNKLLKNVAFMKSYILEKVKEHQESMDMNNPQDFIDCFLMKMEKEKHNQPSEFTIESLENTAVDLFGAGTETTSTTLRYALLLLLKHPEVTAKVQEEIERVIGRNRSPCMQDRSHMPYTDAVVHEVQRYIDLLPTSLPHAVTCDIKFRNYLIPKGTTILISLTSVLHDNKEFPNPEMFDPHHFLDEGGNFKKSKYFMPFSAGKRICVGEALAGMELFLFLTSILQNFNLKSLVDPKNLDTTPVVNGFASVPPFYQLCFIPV

O=C1c2ccccc2-c2c1c1c(O)cccc1n2CCCc1ccccc1 has an inhibition of 98 ± 25% (ABCG2; mitoxantrone efflux, inhibitor, flow cytometry; HEK293 transfected with ABCG2; 10 µM, 30 min, together with: mitoxantrone 5 µM; reference: Ko143 1 µM).
C=C[C@H]1CN2CCc3c([nH]c4cccc(OC)c34)[C@@H]2C[C@@H]1/C(=C\OC)C(=O)OC gave an IC50 of > 45 µM (CYP2C8; enzyme activity, inhibitor; human, liver microsomes).
For C[C@]12CCC(=O)C[C@@H]1CC[C@@H]1[C@@H]2CC[C@@]2(C)[C@H]1CC[C@@]2(O)C/C=C/C[C@]1(O)CC[C@H]2[C@@H]3CC[C@H]4CC(=O)CC[C@]4(C)[C@H]3CC[C@@]21C, the Kd was 9.6 µM (CYP3A4; binding, absorbance; pH 7.4).
For COc1ccccc1CCn1c2c(c3c(O)cccc31)C(=O)c1ccccc1-2, the inhibition was 85 ± 11% (ABCG2; mitoxantrone efflux, inhibitor, flow cytometry; HEK293 transfected with ABCG2; 10 µM, 30 min, together with: mitoxantrone 5 µM; reference: Ko143 1 µM).
OCc1ncc2n1-c1ccc(Cl)cc1C(c1ccccc1F)=NC2: “metabolic AUC ratio” 0.391 (CYP3A4; human; oral, 75 mg once daily, day -1, molecular-weight corrected, geometric mean, together with: midazolam 7.5 mg; reference: compound AUC over midazolam AUC).
Cc1ncc2n1-c1ccc(Cl)cc1C(c1ccccc1F)=NC2 has a Cmax of 14 ± 5.3 ng/mL (CYP3A4; healthy female humans, plasma; oral, dose not given, day 1, probe cocktail alone).
With Cc1ncc2n1-c1ccc(Cl)cc1C(c1ccccc1F)=NC2 the kslow was 0.022 ± 0.03 s⁻¹ (Cytochrome P450 3A4 (CYP3A4, Homo sapiens, UniProt P08684, C239T/C377A/C468S/C58A/C64M/C98A); ligand, stopped flow; 40 µM, pH 7.4, Cys-less variant).
CC[C@@H]1CN2CCc3c([nH]c4cccc(OC)c34)[C@H]2C[C@@H]1/C(=C\OC)C(=O)OC gave an IC50 of 36.6 µM (CYP2C8; enzyme activity, inhibitor; human, liver microsomes).
With Cc1cc(O)c2c3c(n(CCc4ccccc4)c2c1)-c1ccccc1C3=O the inhibition was 92 ± 22% (ABCG2; mitoxantrone efflux, inhibitor, flow cytometry; HEK293 transfected with ABCG2; 10 µM, 30 min, together with: mitoxantrone 5 µM; reference: Ko143 1 µM).
With COc1cccc(C2(O)CCCCC2CN(C)C)c1 (centres unmarked) the EC20 was 239 µM (complex I; oxygen consumption acceleration; BALB/cByJ female mouse liver mitochondria; 60 min, together with: malate + glutamate).
With CNC(=O)O/N=C/C(C)(C)SC the inhibition was 0.11% (CYP2C9; inhibitor; human liver microsomes; 10 µM, pH 7.4, together with: diclofenac).
CN[C@@](C)(C[18F])C(=O)O gave a tracer uptake of 51 %ID/g (DU-145 tumour model; host not given, pancreas; 15 min, tumour-bearing).
With CNC(=O)O/N=C/C(C)(C)[S+](C)[O-] (centres unmarked) the inhibition was 14% (CYP2C9; inhibitor; human liver microsomes; 10 µM, pH 7.4, together with: diclofenac).
With c1ccc(C2(N3CCCCC3)CCCCC2)cc1 the inhibition was 80% (CYP2B6 (baboon); hydroxybupropion formation; baboon liver microsomes; concentration not given, 30 min, together with: bupropion).
